Assay results of several laboratories.
Parts stem from different laboratories: compare values within a part only.

Series 1 — technique: universal PBM; molecule type: double-stranded DNA, one strand shown; matrix: in vitro; concentration: 600 nM; direction: higher = stronger binding
Target: Sal-like protein 4, full length isoform A (SALL4, Homo sapiens, UniProt Q9UJQ4, residues 1-1053)
UniProt Q9UJQ4, sequence (whole entry, looked up): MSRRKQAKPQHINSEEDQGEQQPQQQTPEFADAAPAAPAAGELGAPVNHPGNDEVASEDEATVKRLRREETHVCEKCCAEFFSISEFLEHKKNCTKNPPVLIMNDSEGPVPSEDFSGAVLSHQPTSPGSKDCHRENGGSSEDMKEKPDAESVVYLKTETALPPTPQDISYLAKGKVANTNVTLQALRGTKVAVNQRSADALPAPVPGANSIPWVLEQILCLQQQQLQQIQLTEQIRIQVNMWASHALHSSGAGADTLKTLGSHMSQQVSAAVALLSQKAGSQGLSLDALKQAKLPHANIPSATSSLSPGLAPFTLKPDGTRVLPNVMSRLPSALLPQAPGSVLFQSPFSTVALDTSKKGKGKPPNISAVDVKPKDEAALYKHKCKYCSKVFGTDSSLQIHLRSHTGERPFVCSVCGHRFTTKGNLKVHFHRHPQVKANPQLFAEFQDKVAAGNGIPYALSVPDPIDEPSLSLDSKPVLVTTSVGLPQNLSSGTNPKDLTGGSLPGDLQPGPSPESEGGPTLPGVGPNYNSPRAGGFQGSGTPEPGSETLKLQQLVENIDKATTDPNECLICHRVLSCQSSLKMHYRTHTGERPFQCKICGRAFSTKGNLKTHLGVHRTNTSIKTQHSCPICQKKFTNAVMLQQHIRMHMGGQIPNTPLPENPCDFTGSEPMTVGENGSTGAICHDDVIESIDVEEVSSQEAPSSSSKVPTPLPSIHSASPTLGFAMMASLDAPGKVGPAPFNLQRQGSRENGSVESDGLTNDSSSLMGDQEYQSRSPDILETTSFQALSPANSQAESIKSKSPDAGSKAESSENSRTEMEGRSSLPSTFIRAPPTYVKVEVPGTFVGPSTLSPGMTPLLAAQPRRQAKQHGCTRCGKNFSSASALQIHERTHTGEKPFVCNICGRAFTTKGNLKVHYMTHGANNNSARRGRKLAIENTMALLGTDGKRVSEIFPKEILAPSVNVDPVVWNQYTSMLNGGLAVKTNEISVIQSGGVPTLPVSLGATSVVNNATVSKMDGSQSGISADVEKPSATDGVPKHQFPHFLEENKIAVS
Setting: 8-mer, flanks averaged, mean of replicates
`TGTTTAAA` gave an E-score of 0.164.
For `CACTTTGG`, the E-score was -0.0367.
`AATGAGTC` has an E-score of 0.133.

Further values, each from its own experiment
IRF5 S451D/S453D/S456D/S462D full length, phosphomimetic: Interferon regulatory factor 5, full length, phosphomimetic (IRF5, Homo sapiens, UniProt Q13568-2, residues 1-514, S451D/S453D/S456D/S462D)
CBF1 full length, His-tagged: Centromere-binding protein 1, full length, His-tagged (CBF1, Saccharomyces cerevisiae, UniProt P17106, residues 1-351)
UniProt P17106, sequence (whole entry, looked up): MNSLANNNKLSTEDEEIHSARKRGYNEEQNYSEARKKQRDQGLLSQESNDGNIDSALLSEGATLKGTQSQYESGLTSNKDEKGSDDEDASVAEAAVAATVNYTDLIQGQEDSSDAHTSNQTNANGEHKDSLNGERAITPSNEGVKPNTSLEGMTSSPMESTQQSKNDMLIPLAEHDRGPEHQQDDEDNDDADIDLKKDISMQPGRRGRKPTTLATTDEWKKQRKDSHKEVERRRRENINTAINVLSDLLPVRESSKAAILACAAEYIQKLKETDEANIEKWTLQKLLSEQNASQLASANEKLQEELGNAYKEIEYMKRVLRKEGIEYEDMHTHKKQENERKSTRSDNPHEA
`GCCTAGCACTCAGCTACCTCTCTTAGACTGTGCTAGGTCTTGATTCGCTTGACGCTGCTG` — result for “fitted relative affinity”: 0.0929 z-score (IRF5 S451D/S453D/S456D/S462D full length, phosphomimetic; protein-binding microarray; double-stranded DNA, one strand shown, in vitro; 940 nM top, 60-bp whole probe, with: salmon DNA 0.4 mg/ml; relative to: random background probes, higher = stronger binding).
With `GAGGTTGGTACTATGAACGTGTTCCTGGTTTTCCTGGTCTTGATTCGCTTGACGCTGCTG` the fluorescence intensity was 83.2 a.u. (CBF1 full length, His-tagged; competition protein-binding microarray; double-stranded DNA, one strand shown, in vitro; 2 µM, whole 60-bp probe, lowest competitor level, with: Pho4 competitor, 0.05 µM; higher = stronger binding).
The fold induction of `PhoQ, residues 284 288 289 292 302 303 SLSLLA` is reported as 24.3 (PhoP, residues 12 14 15 18 19 NFCKL (Escherichia coli, UniProt P23836); Sort-seq, item: YFP reporter; E. coli; PhoQ-PhoP variant library, with: 10 µM Mg2+; relative to: high Mg2+ state, higher = stronger signaling).
For `GTCTTGTCTCATTGGAGCGTGGGTGTCCCCACTTCAGTCTTGATTCGCTTGACGCTGCTG`, the fluorescence intensity was 73.3 a.u. (CBF1 full length, His-tagged; competition protein-binding microarray; double-stranded DNA, one strand shown, in vitro; 2 µM, whole 60-bp probe, lowest competitor level, with: Pho4 competitor, 0.05 µM; higher = stronger binding).
For `GCCTAGCACTCAGTTTTAAATTCTAAACTGTGCTAGGTCTTGATTCGCTTGACGCTGCTG`, “fitted relative affinity” read 0.15 z-score (IRF5 S451D/S453D/S456D/S462D full length, phosphomimetic; protein-binding microarray; double-stranded DNA, one strand shown, in vitro; 940 nM top, 60-bp whole probe, with: salmon DNA 0.4 mg/ml; relative to: random background probes, higher = stronger binding).

For quick reference, copied from above (further values, each from its own experiment):
With `GAGGTTGGTACTATGAACGTGTTCCTGGTTTTCCTGGTCTTGATTCGCTTGACGCTGCTG` the fluorescence intensity was 83.2 a.u. (CBF1 full length, His-tagged; competition protein-binding microarray; double-stranded DNA, one strand shown, in vitro; 2 µM, whole 60-bp probe, lowest competitor level, with: Pho4 competitor, 0.05 µM; higher = stronger binding).
